Measured values from different studies.
Protocols differ between the studies behind these lines. Several values in a cell are separate wells, animals, samples, runs or records. Numbers after ± are the reported error.

Structure (SMILES)	cell line	test	system	setting	scale	endpoint	value
CC(C)C[C@H](NC(=O)[C@H](CC(N)=O)NC(=O)[C@H](Cc1ccc(O)cc1)NC(=O)CN(C)C(=O)CCCCC(=O)O)C(=O)N[C@@H](Cc1ccc(O)cc1)C(=O)N[C@@H](CCCNC(=N)N)C(=O)N[C@H](C(=O)N[C@@H](CCCNC(=N)N)C(=O)N[C@@H](CO)C(N)=O)C(C)C	choroidal endothelial cells	MTT	–	100 µM, 48 h	–	decrease in cell growth	~40%
CC/C(=C(\c1ccc(O)cc1)c1ccc(OCCN(C)CCOCCOCCOCCOCCOCCOCCOCCOCCOCCN(C)CCOc2ccc(/C(=C(/CC)c3ccccc3)c3ccc(O)cc3)cc2)cc1)c1ccccc1	U2OS transfected with ERα	–	–	10 µM, cytotoxicity	–	cell density	9%
CCOc1c(C(C)(C)O)sc2cnc(Nc3ccc(N4CCC(N5CC6(COC6)C5)CC4)cc3OC)nc12	human atrial cardiomyocytes	whole-cell patch clamp, refers to: APD50 and APD80	–	1, 3 and 10 µM	baseline: vehicle	action potential duration	no effect
COc1ccc2c(c1)c1c(C)c3cnccc3c(C)c1n2CCCN1CCN(C)CC1	SK-N-SH	cell growth	–	–	–	IC50	1.2 ± 0.8 µM
CCCCn1cc(C(=O)O)c(=O)c2cc(F)c(Nc3cccc(OC)c3)c([N+](=O)[O-])c21	PC-3	cell growth, sulforhodamine B	–	72 h	–	IC50	130 ± 13.1 µg/mL
CS[Se][C@@H]1O[C@H](COC(C)=O)[C@@H](OC(C)=O)[C@H](OC(C)=O)[C@H]1NC(C)=O	J774	cell growth or viability, WST-1	–	24 h	–	CC50	2.8 µM
CC(=O)N[C@H](C(=O)N[C@H](C(=O)N[C@@H](CCCNC(=N)N)C(=O)N1Cc2ccccc2C[C@H]1C(=O)N[C@@H](Cc1ccccc1)C(N)=O)C1CCCCC1)C(C)C	human PBMC	Bio-Plex multiplex, refers to: Eotaxin	–	250 µg/mL, 24 h	–	cytokine level	< 15.7 pg/mL
N=C(N)NCCC[C@@H]1NC(=O)[C@H](CCCNC(=N)N)NC(=O)[C@H](CCCNC(=N)N)NC(=O)[C@H](Cc2c[nH]c3ccccc23)NC(=O)[C@H](Cc2c[nH]c3ccccc23)NC(=O)[C@H](Cc2c[nH]c3ccccc23)NC(=O)[C@H](Cc2c[nH]c3ccccc23)NC(=O)[C@H](CCCNC(=N)N)NC1=O	SK-OV-3	MTS	–	15 µM, 24 h	–	cytotoxicity	≤ 5%
CC(=O)OC[C@H]1O[C@@H]([Se]SC[C@H]2O[C@@H]3OC(C)(C)O[C@@H]3[C@H]3OC(C)(C)O[C@H]32)[C@H](OC(C)=O)[C@@H](OC(C)=O)[C@@H]1OC(C)=O	J774	cell growth or viability, WST-1	–	24 h	–	CC50	13.5 µM
CNCCNC(=O)CN1C(=O)Cc2c([nH]c3ccc(Br)cc23)-c2ccc(Cl)cc21	J774	cell growth or viability	–	24 h	–	CC50	10.3 µM
O=C(CCc1ccc(CNC(C(=O)OC2CCCC2)C2CCCCC2)cn1)NO (stereo not drawn)	human CD14+ monocytes	–	human whole blood	10 µM, 1 or 6 h	–	intracellular level	not detected
Cc1ncc2c(n1)CN(C(=O)Nc1nc(-c3cccs3)ccc1N)C2	human bone marrow erythroid progenitors	–	–	10 µM, 14 days	baseline: untreated	colony formation	27%
CC/C(=C(\c1ccc(O)cc1)c1ccc(OCCN(C)CCOCCOCCOCCOCCOCCOCCOCCN(C)CCOc2ccc(/C(=C(/CC)c3ccccc3)c3ccc(O)cc3)cc2)cc1)c1ccccc1	U2OS transfected with ERα	–	–	10 µM, cytotoxicity	–	cell density	10%
CC(=O)Nc1ccc(C(=O)Nc2cc(-c3cccs3)ccc2N)cc1	human bone marrow erythroid progenitors	–	–	10 µM, 14 days	baseline: untreated	colony formation	0%
CCCCn1cc(C(=O)O)c(=O)c2cc(F)c(Nc3cc(OC)c(OC)c(OC)c3)c([N+](=O)[O-])c21	PC-3	cell growth or viability, SRB	–	–	–	IC50	< 50 µM and 49.6 µM
[99Tc+].[C-]#[N+]CC(C)(C)OC.[C-]#[N+]CC(C)(C)OC.[C-]#[N+]CC(C)(C)OC.[C-]#[N+]CC(C)(C)OC.[C-]#[N+]CC(C)(C)OC.[C-]#[N+]CC(C)(C)OC	human sandwich-cultured hepatocytes	–	–	20 min, culture day 7	baseline: preloaded amount	canalicular efflux	25.4 ± 6%
COc1ccc(NC(=O)N/N=C2\CC3(CCN(C)CC3)Oc3ccccc32)cc1	PC-3	cell growth, MTT	–	48 h	–	IC50	3.3 ± 0.13 µM
CC(C)Cc1ccc(C(C)C(=O)N/N=C/c2ccc(OCC(=O)N/N=C/c3c(O)ccc4ccccc34)cc2)cc1 (stereo not drawn)	HEK293	MTT	–	100 µM, 48 h	–	viability	25.7%
CCCC[C@H](NC(=O)[C@H](CC(=O)O)NC(=O)[C@H](CC(=O)O)NC(=O)[C@H](CCC(=O)O)NC(=O)[C@H](Cc1ccc(O)cc1)NC(=O)[C@H](CC(=O)O)NC(=O)[C@H](CC(=O)O)NC(=O)[C@H](CCC(=O)O)NC(=O)[C@H](CC(C)C)NC(=O)[C@H](CCC(=O)O)NC(=O)[C@H](CCC(=O)O)NC(=O)c1ccc2c(c1)C1(OC2=O)c2ccc(O)cc2Oc2cc(O)ccc21)C(=O)N[C@@H](CCC(=O)O)C(=O)N[C@@H](CCC(=O)O)C(N)=O	A-431 cells	microinjection, single-cell CE	–	–	–	median degradation rate	39 fmol/min/mg
O=S(=O)(O)CC1CSSCC(CS(=O)(=O)O)SS1 (stereo not drawn)	OECM1	–	–	254 µM, 4 d	–	viability	32.5%

Structure (SMILES)	cell line	test	system	setting	scale	endpoint	value
CC/C(=C(\c1ccc(O)cc1)c1ccc(OCCN(C)CCOCCOCCOCCN(C)CCOc2ccc(/C(=C(/CC)c3ccccc3)c3ccc(O)cc3)cc2)cc1)c1ccccc1	U2OS transfected with ERα	–	–	10 µM, cytotoxicity	–	cell density	51%
COCc1cc2c(cn1)CN(C(=O)Nc1nc(-c3ccc(F)cc3)ccc1N)C2	human bone marrow erythroid progenitors	–	–	10 µM, 14 days	baseline: untreated	colony formation	23%
C[C@H](CCC=O)[C@@H]1CC[C@]2(C)C3=C(CC[C@@]12C)[C@@]1(C)CC[C@H](O)C(C)(C)[C@@H]1CC3	PC-3	cell growth or viability, SRB	–	50 µM	–	inhibition	87.2%
CC(=O)OC[C@H]1O[C@@H]([Se]C(=O)c2ccc([N+](=O)[O-])cc2)[C@H](OC(C)=O)[C@@H](OC(C)=O)[C@@H]1OC(C)=O	J774	cell growth or viability, WST-1	–	24 h	–	CC50	14.8 µM
COc1cc(-c2ccc3oc(-c4ccsc4)c(C#CC4(O)CCCCC4)c3c2)cc(OC)c1OC	primary human hepatocytes	–	–	–	–	CC50	> 100 µM
C[C@H](NP(=O)(O)OC[C@H]1O[C@@](C#N)(c2ccc3c(N)ncnn23)[C@H](O)[C@@H]1O)C(=O)O	primary human hepatocytes	refers to: cellular ATP	–	3 days	–	CC50	> 100 µM
N#Cc1cc(C(=O)OCC[18F])c(C(F)(F)F)nc1N1CCN(C(=O)Cc2ccccc2)CC1	bEnd.3 monolayer transwell	–	–	concentration not given, together with: verapamil 1.0 µg	–	permeability	21.5%
COCCOCCOCCOCCOCCOCCOCCOCCOCCOCCOCCOCCOCCOCCOCCOCCOCCOCCOCCOCCOCCOCCNC(=O)CCC1(Cc2ccccc2)c2ccccc2-c2ccc(-c3sc(-c4c5c(c(-c6sc(-c7ccc8c(c7)C(CCC(=O)NCCOCCOCCOCCOCCOCCOCCOCCOCCOCCOCCOCCOCCOCCOCCOCCOCCOCCOCCOCCOCCOCCOC)(Cc7ccccc7)c7ccccc7-8)c7c6OCCO7)c6nsnc46)N=S=N5)c4c3OCCO4)cc21 (stereo not drawn)	mouse erythrocytes	–	–	up to 100 µM	–	haemolysis	< 5%
O=Cc1c(O)ccc2ccccc12	HUVEC	refers to: CYP1B1	–	75 µM, 24 h	baseline: DMSO	log2 fold change	4.21
CC/C(=C(\c1ccc(O)cc1)c1ccc(OCCN(C)CCOCCOCCOCCOCCOCCN(C)CCOc2ccc(/C(=C(/CC)c3ccccc3)c3ccc(O)cc3)cc2)cc1)c1ccccc1	U2OS transfected with ERα	–	–	10 µM, cytotoxicity	–	cell density	15%
CC(C)CCC[C@@H](C)[C@H]1CCC([C@@H]2CC[C@H]3C[C@H](O)CC[C@]3(C)[C@@H]2O)[C@]1(C)CC(=O)O (stereo partly drawn)	HEK293T	CellTiter-Blue	–	concentration not given	–	viability	27.2%
CCCc1cc2cc(-n3nc(C)c4c3CC(C)(C)CC4=O)cc(N[C@H]3CCOC3)c2c(=O)[nH]1	hiPSC cardiomyocytes	–	–	50 µM, 24 h	–	contraction amplitude	increased
CC(=O)OC[C@H]1O[C@@H]([Se][C@@H]2O[C@H](COC(C)=O)[C@@H](OC(C)=O)[C@H](OC(C)=O)[C@H]2OC(C)=O)[C@H](OC(C)=O)[C@@H](OC(C)=O)[C@@H]1OC(C)=O	J774	cell growth or viability, WST-1	–	24 h	–	CC50	10.8 µM
COc1ccc(-c2oc3ccc(-c4cc(OC)c(OC)c(OC)c4)cc3c2C#CC(C)(C)O)cc1	primary human hepatocytes	–	–	–	–	CC50	> 31.6 µM
O=[N+]([O-])c1c(Br)c(Cl)c2cccnc2c1O	HEK293T	cell viability, CCK-8	–	48 h	–	IC50	~52.7 µg/mL
COc1ccc(C(=O)Nc2cccc(S(N)(=O)=O)c2)cc1OC	HEK293T	cell viability, MTT	–	100 µM, 24 to 48 h	–	cytotoxicity	27 ± 0.2%
CC(C)=CCCC(C)C1CCC2(C)C3=C(CCC12C)C1(C)CCC(=O)C(C)(C)C1CC3 (stereo not drawn)	COS-7	cell growth or viability, SRB	–	50 µM	–	inhibition	17.2%
CC(=O)NCCN(CCC(=O)NCCN(CCC(=O)NCCN(CCC(=O)NCCC(N)=O)C(=O)[C@@H](N)Cc1ccccc1)C(=O)[C@@H](N)CCCNC(=N)N)C(=O)[C@@H](N)Cc1ccccc1	human PBMC	cell growth or viability, MTT	–	–	–	CC50	> 1000 µM
CC(=O)O[C@@H]1[C@@H](OC(C)=O)[C@H](Sc2sc(C(=O)c3ccc(Br)cc3)c(N)c2-c2nc3ccccc3s2)OC[C@H]1OC(C)=O	Huh7.5, uninfected	–	–	72 h	–	non-toxic concentration	100 µg/mL
